Measurements gathered from unrelated publications.
Each line is one published result; not all experiments were run side by side. ± gives the spread as reported.
Chain of UniProt P49840 (whole entry, looked up): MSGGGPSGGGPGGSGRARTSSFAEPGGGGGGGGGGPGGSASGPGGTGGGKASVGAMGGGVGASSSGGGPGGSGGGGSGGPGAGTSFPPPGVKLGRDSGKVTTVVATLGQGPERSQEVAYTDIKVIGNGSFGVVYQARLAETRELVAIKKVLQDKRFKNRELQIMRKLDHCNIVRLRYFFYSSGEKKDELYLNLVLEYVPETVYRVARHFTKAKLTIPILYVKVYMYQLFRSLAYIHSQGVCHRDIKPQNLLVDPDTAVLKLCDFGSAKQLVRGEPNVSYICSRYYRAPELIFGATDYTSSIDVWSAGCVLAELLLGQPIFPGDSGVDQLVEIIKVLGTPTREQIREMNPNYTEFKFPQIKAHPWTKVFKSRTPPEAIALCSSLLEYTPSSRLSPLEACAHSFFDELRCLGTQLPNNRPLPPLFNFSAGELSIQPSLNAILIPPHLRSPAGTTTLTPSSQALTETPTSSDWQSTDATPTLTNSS

Under “parent compound in plasma”, COC(=O)CC1CCN(C(=O)c2cc(-c3cccs3)nn2-c2ccccc2)CC1 is recorded as “not detected” (LC-MS; BALB/c mice, male and female, plasma; intraperitoneal, 1 mg/kg single dose, up to 24 h).
NC(=O)N1c2ccccc2C=Cc2ccccc21: “adverse events incidence” 0% (item: psychiatric disorders (SOC); human male; oral, dose not given, CTCAE on-treatment AEs).
CC(C)(C(=O)N1CCOc2c(C#N)cncc2C1)C(F)F: “subjects with adverse event” 0% (item: Dizziness; human; oral, 20 mg once daily, 14 days, multiple ascending dose).
Fc1ccc([C@@H]2COC[C@H](c3cc(Cl)cc(Cl)c3)N2)cc1 has a logD of > 4.7 (shake-flask, 1-octanol/buffer; pH 7.4).
For Cc1[nH]c2ccccc2c1C1=C(Cl)C(=O)C(Cl)=C(N2CCOCC2)C1=O, the LD50 was 374 mg/kg (mouse; intraperitoneal, 14 days).
CC(C)(C)c1ccc([C@H]2COC[C@H](c3ccc(F)cc3)N2)cc1 has a logD of > 4.7 (shake-flask, 1-octanol/buffer; pH 7.4).
O=C(COc1ccc(Cl)cc1)NC12CC(c3nnc([C@H]4C[C@@H](OC(F)(F)F)C4)o3)(C1)C2 — result for “participants with TEAE”: 50% (human both sexes; oral, 15 mg single dose).
COCCOc1cnc2ccn([C@H](C)c3nnc4c(F)cc(-c5cnn(C)c5)cn34)c(=O)c2c1 gave a Ctrough of 1200 ng/mL (cancer patients, plasma; oral, 150 mg twice daily, day 28).
C/C=C/C[C@@H](C)C(=O)[C@H]1C(=O)N[C@@H](C(C)C)C(=O)N(C)CC(=O)N(C)[C@@H](CC(C)C)C(=O)N[C@@H](C(C)C)C(=O)N(C)[C@@H](CC(C)C)C(=O)N[C@@H](C)C(=O)N[C@H](C)C(=O)N(C)[C@@H](CC(C)C)C(=O)N(C)[C@@H](CC(C)C)C(=O)N(C)[C@@H](C(C)C)C(=O)N1C — result for “total plasma concentration”: 889 ng/mL (Sprague Dawley rat, plasma; intravenous infusion, 0.29 mg/h/kg, 4 h, 4.5 h constant infusion).
Cn1ncnc1[C@H]1c2n[nH]c(=O)c3cc(F)cc(c23)N[C@@H]1c1ccc(F)cc1 — result for “brain concentration ratio”: 35 fold (FVB mice, brain; oral, 0.15 mg/kg, 2 h; relative to: Mdr1a/b−/− over wild type).
CC(C)(C)c1ccc(O)c(CN(Cc2cc(C(C)(C)C)ccc2O)C2CCC(NC(N)=O)CC2)c1 (centres unmarked) gave a recovery of 93.56 ± 0.38% (mouse plasma; 2000 ng/mL, 24 h, 25 °C, short-term storage).
Cc1cc(-c2nccc3c2ccn3CC(=O)Nc2ccc(-c3cnccn3)cn2)ccn1: “subjects with coronavirus infection” 0% (human; 20 mg once daily, multiple ascending dose).
For CC[C@]1(O)C[C@H]2CN(CCc3c([nH]c4ccccc34)[C@@](C(=O)OC)(c3cc4c(cc3OC)N(C=O)[C@H]3[C@@](O)(C(=O)OC)[C@H](OC(C)=O)[C@]5(CC)C=CCN6CC[C@]43[C@@H]65)C2)C1, the viability was 81.9% (CHP-212 resistant subline R2 (heterozygous USP7 V517F); cell viability; 4.572 nM).
Clc1ccc([C@H]2COC[C@@H](c3cccc(Br)c3)N2)cc1 gave a logD of > 4.7 (shake-flask, 1-octanol/buffer; pH 7.4).
The QT interval of COc1ccc2c(c1)CN(C(=O)CCN1CCC(Cc3ccccc3)CC1)CC[S@@+]2[O-] is reported as 243 ± 17 ms (telemetry; conscious male beagle dogs; intravenous, 4 mg/kg, 4 h).
For COc1ncc(-c2nc3c(n2C(C)C)[C@H](c2ccc(Cl)cc2)N(c2cc(Cl)cn(C)c2=O)C3=O)c(OC)n1, the AUC(0-last) was 17900 ng·h/mL (LC-MS/MS, noncompartmental; human, plasma; oral, 150 mg, cycle 2 day 1, high-dose, geometric mean).
The DHEA-S level of N#Cc1ccc2c(c1)[C@H]1CCCN(C(=O)c3ccc4[nH]cnc4c3)[C@H]1C2 is reported as 3.5 µmol/L (human, female; 240 mg, end of trial).
Cc1cc(C)c(CNC(=O)c2cc(Cl)c3c(c2C)O[C@@](C)([C@H]2CC[C@H](N(C)C)CC2)O3)c(=O)[nH]1: “first-order absorption rate constant” 0.374 h⁻¹ (population PK model; human; oral).
C[C@@H](NC(=O)N1C(=O)[C@H](Cc2ccnc(N)c2)[C@H]1C(=O)O)C1CCCCC1 has a CL of 5.18 mL/min/kg (UPLC-MS/MS; healthy adult Chinese volunteers, plasma; continuous intravenous infusion, 1.0 mg/kg/h, day 6 of 5-day infusion, mean).
Under “absorption lag time”, CC[C@@H]1CN(C(=O)NCC(F)(F)F)C[C@@H]1c1cnc2cnc3[nH]ccc3n12 is recorded as 0.188 h (population PK modelling; human; oral, immediate-release formulation, outliers re-estimated).
Under “grade 3-4 TEAE”, C[C@@H](c1ncncc1F)[C@](O)(Cn1cncn1)c1ccc(F)cc1F is recorded as 0% (human; oral, 400 mg, drug interaction trial).
Under “total bilirubin change”, CN(CCC(=O)O)C(=O)c1ccc2c(c1)CC[C@@H]1[C@@H]2CC[C@]2(C)C(c3cncc(F)c3)=CC[C@@H]12 is recorded as 0.827 mg/dL (premenopausal women, endometriosis pain, serum; 60 mg twice daily, visit 4, mean; relative to: baseline).
Cc1cc(C)c(CNC(=O)c2cc(Cl)c3c(c2C)O[C@@](C)([C@H]2CC[C@H](N(C)C)CC2)O3)c(=O)[nH]1 — result for “AST increased grade ≥3”: 0% (human relapsed/refractory NHL; oral, 200 mg once daily, onset day 1 to 14).
O=S(=O)(NCc1ccccn1)c1ccc(Cl)c(Cl)c1Cl gave a logD of 3.05 (octanol/buffer; pH 7.4).
O=C(Nc1ccc(Cl)c(O)c1)Nc1ccc(Cl)c(Cl)c1 — result for “chromatographic hydrophobicity index”: 103 (reverse phase LC, C18; acetonitrile gradient, 0.1% formic acid; converted from retention time; relative to: Valko CHI standards).
For Cc1ccc([C@@H]2O[C@H](CO)[C@@H](O)[C@H](O)[C@H]2O)cc1Cc1ccc(-c2ccc(F)cc2)s1, “urinary calcium excretion change” read -29.7 mg (Japanese type 2 diabetes patients; 200 mg, day 17, 24 h urine collection; relative to: baseline).
O=[N+]([O-])c1cc2c3ccccc3ccc2c2ccccc12 — result for “tumours per rat”: 1.39 ± 1.2 (item: adenocarcinoma mammary tumours; female Sprague-Dawley rats; intramammary, 12.3 µmol per rat, up to 32 weeks).
The Tmax of NC1(C(=O)N[C@@H](CCO)c2ccc(Cl)cc2)CCN(c2nc[nH]c3nccc2-3)CC1 is reported as 1.7 h (LC-MS/MS, non-compartmental; human patients, plasma; 160/400 mg cohort, cycle 0, geometric mean, added: enzalutamide).
Cc1nc2ccc(OCc3ccc(C(F)(F)F)cc3)cc2[nH]1 gave a tissue concentration of 1050 ± 147 ng/g (Balb/c mouse, male, kidney; intravenous, 1 mg/kg, 3 h).
With CCn1c(=O)c(-c2cc(NC(=O)Nc3ccccc3)c(F)cc2Br)cc2cnc(NC)cc21 the trough concentration was 157 ng/mL (LC-MS/MS; human, plasma; oral, 150 mg once daily).
O=C1c2ccccc2C(=O)N1CCCc1nc(-c2cccc([N+](=O)[O-])c2)no1 gave a logD of 3.21 (octanol/buffer; pH 7.4).
CC[C@H](C)CCCCC(=O)N[C@@H](CCN)C(=O)N[C@H](C(=O)N[C@@H](CCN)C(=O)N[C@H]1CCNC(=O)[C@H]([C@@H](C)O)NC(=O)[C@H](CCN)NC(=O)[C@H](CCN)NC(=O)[C@H](CC(C)C)NC(=O)[C@@H](Cc2ccccc2)NC(=O)[C@H](CCN)NC1=O)[C@@H](C)O: “cumulative urinary excretion” 0.643 mg (mild renal insufficiency patients, urine; IV, 0.75 mg/kg, 0-12 h, arithmetic mean).
CCN1/C(=C/C(C)=O)Sc2ccc(F)cc21: “QTc interval (Bazett)” 336 ± 15 ms (cynomolgus monkey; oral, 100 mg/kg, 1 h post-dose).
The AUC0-tz reduction of C=CC(=O)NC1CCN(c2ncc3ncnc(Nc4ccc(Oc5ccc6c(c5)ncn6C)c(C)c4)c3n2)CC1 is reported as 26% (human, male, plasma; oral, 30 mg, fed; relative to: fasted).
The efflux ratio of CCCCCCOC(=O)NC(=N)c1ccc(NCc2nc3cc(C(=O)N(CCC(=O)OCC)c4ccccn4)ccc3n2C)cc1 is reported as 3.6 (EpiIntestinal microtissues; 5 µM, 2 h, no inhibitor).
CCc1cc(C(=O)NC)c2nccc(N3CCc4c(cc(Cn5ccnc5)cc4-c4cn(C)nc4C(F)(F)F)C3=O)c2c1 has a body weight of 218 ± 4.9 g (Sprague Dawley rat; oral, 100 mg/kg twice daily, day 1, 7-day toxicology study).
The hydrodynamic diameter of C[C@]12O[C@H](C[C@]1(O)CO)n1c3ccccc3c3c4c(c5c6ccccc6n2c5c31)CNC4=O is reported as 16.9 nm (dynamic light scattering; bovine serum).
Under “passive intrinsic uptake clearance”, CN(C)c1ccc2c(c1)c(=O)n(-c1ccc(C[C@H](NC(=O)c3c(Cl)cccc3Cl)C(=O)O)cc1)c(=O)n2C is recorded as 4.9 mL/min/kg (cynomolgus monkey, hepatocyte suspension; scaled in vitro unbound).
The AUC(0-24) of C=CCn1c(=O)c2cnc(Nc3ccc(N4CCN(C)CC4)cc3)nc2n1-c1ccc2c(n1)[C@@](O)(CC)CC2 is reported as 43700 ng·h/mL (female NOD/SCID mouse OVCAR-3 xenograft, plasma; oral, 90 mg/kg once daily, :2).
For O=C(O)CN1CCCN2CCN(Cc3ccccc3)CCCN(CC1)Cc1cccc(n1)C2, the intact complex was 96% (64Cu complex; 12 h, pH 7.4, 37 °C, added: DOTA excess).
For CC1(C)OC[C@H](c2ccc3ccccc3c2)N[C@@H]1c1ccccc1, the logD was > 4.7 (shake-flask, 1-octanol/buffer; pH 7.4).
Cc1ccc(C(=O)N(CCCN)C(c2nc3snc(C)c3c(=O)n2Cc2ccccc2)C(C)C)cc1 (centres unmarked) — result for “grade ≥3 fatigue patients”: 0% (human patients; intravenous, 7 mg/day).
CCC(C)n1ncn(-c2ccc(N3CCN(c4ccc(OCC5COC(Cn6cncn6)(c6ccc(Cl)cc6Cl)O5)cc4)CC3)cc2)c1=O (centres unmarked) gave an adverse events of 0% (healthy human volunteers; oral, 200 mg, event Nausea, continued dosing).
CCOc1c([C@H](C)n2nc(C)c3c(N)ncnc32)cc(Cl)c(F)c1[C@@H]1CNC(=O)C1 gave a Cmax of 791 ± 502 nM (patients, monotherapy; oral, 10 mg once daily, cycle 1 day 1).
With CC[C@@H]1[C@H](F)C(=O)N[C@@H]1COc1nccc2cc(C(N)=O)c(OC)cc12 the inhibition was -1.9% (GSK3A (Homo sapiens, UniProt P49840); ATP-site probe binding, ActivX profiling; THP-1 cell lysate; 0.2 mM, Lys2 site).
The logD of CC1(C)OC[C@H](C2CCC2)N[C@@H]1c1ccc(Cl)c(Cl)c1 is reported as > 4.7 (shake-flask, 1-octanol/buffer; pH 7.4).
For COc1cc(C(=O)N2CCC3(CC2)CC(=O)c2c(cnn2C(C)C)C3)cc(-c2ccc(C(=O)O)cc2)n1, “LDL cholesterol change from baseline” read 1.8% (direct measurement; human, fasting serum; 40 mg once daily, day 13, adjusted geometric mean).
For Nc1cc(F)ccc1NC(=O)c1ccc(CNC(=O)/C=C/c2cccnc2)cc1, the logD was 0.12 (octanol/buffer; pH 7.4).
For c1ccc2cc3ccccc3cc2c1, the log K(PDMS-water) was 3.86 ± 0.01 (fresh water; 12 (unit not given), 20 °C, SSP sampler, 100 µm).
For O=C(O)c1cccc(C(=O)O)c1, “apparent dissolution enthalpy” read 4.27 kcal/mol (betaine/glycerol DES-water; DES mass fraction 0.30).
With COc1ccccc1NC(=O)CSc1nnc(-c2ccccc2Cl)n1-c1ccccc1 the logD was 3.97 (octanol/buffer; pH 7.4).
C=CC(=O)NC1CCN(c2ncc3ncnc(Nc4ccc(Oc5ccc6c(c5)ncn6C)c(C)c4)c3n2)CC1 has an AUC0-tz ratio of 0.595 (healthy male volunteers, plasma; oral solution, 60 mg; relative to: compound over total radioactivity).
The cobalt concentration of [O]=[Co].[O]=[Co][O][Co]=[O] is reported as 5500 µg/g (rat, male, faeces, 24-h collection; oral gavage, single, 300 mg/kg (220 mg Co/kg), day 1, vehicle 0.5% HPMC; relative to: vehicle control subtracted).
Cn1cc(-c2cn3nccc3c(-c3cnn([C@]4(CC#N)C[C@@H](C#N)C4)c3)n2)cn1 — result for “peak to trough ratio”: 25.3 (healthy humans fed, plasma; oral, 100 mg once daily, day 10, geometric mean).
CNC(=O)c1ccc(-c2cnc3ncc(Cc4ccc5ncccc5c4)n3n2)cc1F gave a Cmax of 1940 ng/mL (human, moderate NCI classification, plasma; oral, 200 mg, adjusted geometric mean).
CC(C)(F)C[C@H](N[C@@H](c1ccc(-c2ccc(S(C)(=O)=O)cc2)cc1)C(F)(F)F)C(=O)NC1(C#N)CC1 — result for “cysteine adduct formation”: 17% (PBS; 100 µM, 23 h, pH 7.45, 37 °C, added: cysteine 10 mM).

Excerpt of the above:
CC(C)(F)C[C@H](N[C@@H](c1ccc(-c2ccc(S(C)(=O)=O)cc2)cc1)C(F)(F)F)C(=O)NC1(C#N)CC1 — result for “cysteine adduct formation”: 17% (PBS; 100 µM, 23 h, pH 7.45, 37 °C, added: cysteine 10 mM).
O=[N+]([O-])c1cc2c3ccccc3ccc2c2ccccc12 — result for “tumours per rat”: 1.39 ± 1.2 (item: adenocarcinoma mammary tumours; female Sprague-Dawley rats; intramammary, 12.3 µmol per rat, up to 32 weeks).
With COc1ccccc1NC(=O)CSc1nnc(-c2ccccc2Cl)n1-c1ccccc1 the logD was 3.97 (octanol/buffer; pH 7.4).
